{"data": "Assay results pooled from the literature", "note": "Each numbered part is a random draw from the data of one study; scales do not carry over between parts.", "chain of UniProt O15530 (whole entry, looked up)": "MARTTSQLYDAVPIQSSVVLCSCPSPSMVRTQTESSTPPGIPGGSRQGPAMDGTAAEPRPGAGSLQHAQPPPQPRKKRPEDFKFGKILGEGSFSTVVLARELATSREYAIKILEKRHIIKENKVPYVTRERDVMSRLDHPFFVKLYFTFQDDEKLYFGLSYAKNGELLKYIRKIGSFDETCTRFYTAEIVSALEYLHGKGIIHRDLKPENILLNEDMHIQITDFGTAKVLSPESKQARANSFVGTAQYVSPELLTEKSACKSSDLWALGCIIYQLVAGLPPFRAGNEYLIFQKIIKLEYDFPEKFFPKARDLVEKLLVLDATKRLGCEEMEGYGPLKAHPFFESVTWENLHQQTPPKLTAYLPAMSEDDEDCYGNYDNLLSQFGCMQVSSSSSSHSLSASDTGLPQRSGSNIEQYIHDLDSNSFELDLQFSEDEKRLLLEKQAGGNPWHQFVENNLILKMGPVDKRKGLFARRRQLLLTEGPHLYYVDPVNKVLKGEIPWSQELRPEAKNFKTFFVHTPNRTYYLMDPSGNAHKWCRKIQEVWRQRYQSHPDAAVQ", "chain of UniProt Q13554 (whole entry, looked up)": "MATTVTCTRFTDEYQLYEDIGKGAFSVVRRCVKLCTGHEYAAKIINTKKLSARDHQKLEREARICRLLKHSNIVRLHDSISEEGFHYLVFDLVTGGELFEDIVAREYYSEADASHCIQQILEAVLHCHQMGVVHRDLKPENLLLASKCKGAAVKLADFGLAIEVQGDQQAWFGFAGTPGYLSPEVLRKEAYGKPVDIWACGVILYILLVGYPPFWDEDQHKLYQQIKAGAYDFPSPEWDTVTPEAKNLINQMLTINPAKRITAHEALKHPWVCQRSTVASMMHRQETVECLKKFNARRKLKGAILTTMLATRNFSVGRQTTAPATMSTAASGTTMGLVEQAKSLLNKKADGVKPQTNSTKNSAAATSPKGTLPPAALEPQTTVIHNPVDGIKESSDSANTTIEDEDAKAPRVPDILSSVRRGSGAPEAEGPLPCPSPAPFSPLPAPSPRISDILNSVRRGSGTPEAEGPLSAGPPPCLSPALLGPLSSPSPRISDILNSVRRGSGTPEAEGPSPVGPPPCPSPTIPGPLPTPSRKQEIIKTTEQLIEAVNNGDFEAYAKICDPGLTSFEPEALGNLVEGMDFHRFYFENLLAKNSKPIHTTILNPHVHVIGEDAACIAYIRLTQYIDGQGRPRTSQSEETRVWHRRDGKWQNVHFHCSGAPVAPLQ", "chain of UniProt Q04771 (whole entry, looked up)": "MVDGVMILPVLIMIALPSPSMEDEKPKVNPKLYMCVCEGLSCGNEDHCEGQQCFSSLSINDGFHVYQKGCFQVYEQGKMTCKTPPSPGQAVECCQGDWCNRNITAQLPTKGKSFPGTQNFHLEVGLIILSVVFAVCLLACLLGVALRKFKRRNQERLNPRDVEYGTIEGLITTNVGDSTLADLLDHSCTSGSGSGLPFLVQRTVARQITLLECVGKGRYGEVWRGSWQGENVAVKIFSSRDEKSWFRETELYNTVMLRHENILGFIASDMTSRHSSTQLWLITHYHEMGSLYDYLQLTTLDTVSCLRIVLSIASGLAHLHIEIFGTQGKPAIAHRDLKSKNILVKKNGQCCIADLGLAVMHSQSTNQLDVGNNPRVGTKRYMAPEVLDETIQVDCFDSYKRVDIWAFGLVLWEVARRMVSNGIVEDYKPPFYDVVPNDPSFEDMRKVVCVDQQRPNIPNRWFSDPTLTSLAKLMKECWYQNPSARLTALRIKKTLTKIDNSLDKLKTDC", "chain of UniProt P42680 (whole entry, looked up)": "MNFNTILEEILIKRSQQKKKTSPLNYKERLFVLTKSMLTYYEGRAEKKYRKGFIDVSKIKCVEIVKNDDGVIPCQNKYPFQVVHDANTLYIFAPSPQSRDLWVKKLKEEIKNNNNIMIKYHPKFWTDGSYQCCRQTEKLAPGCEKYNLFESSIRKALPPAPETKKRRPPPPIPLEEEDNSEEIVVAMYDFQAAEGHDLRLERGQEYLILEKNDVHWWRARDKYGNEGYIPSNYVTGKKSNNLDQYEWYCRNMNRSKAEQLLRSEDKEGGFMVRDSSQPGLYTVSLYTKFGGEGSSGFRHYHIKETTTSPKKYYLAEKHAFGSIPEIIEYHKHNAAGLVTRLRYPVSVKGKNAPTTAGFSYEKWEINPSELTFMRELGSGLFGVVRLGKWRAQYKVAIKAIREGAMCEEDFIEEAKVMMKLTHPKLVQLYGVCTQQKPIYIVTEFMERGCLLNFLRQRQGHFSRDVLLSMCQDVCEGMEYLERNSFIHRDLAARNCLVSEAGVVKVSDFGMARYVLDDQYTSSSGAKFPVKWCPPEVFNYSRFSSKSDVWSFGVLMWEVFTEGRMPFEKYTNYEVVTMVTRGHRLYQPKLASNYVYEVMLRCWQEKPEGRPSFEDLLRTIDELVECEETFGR", "chain of UniProt P17948 (whole entry, looked up)": "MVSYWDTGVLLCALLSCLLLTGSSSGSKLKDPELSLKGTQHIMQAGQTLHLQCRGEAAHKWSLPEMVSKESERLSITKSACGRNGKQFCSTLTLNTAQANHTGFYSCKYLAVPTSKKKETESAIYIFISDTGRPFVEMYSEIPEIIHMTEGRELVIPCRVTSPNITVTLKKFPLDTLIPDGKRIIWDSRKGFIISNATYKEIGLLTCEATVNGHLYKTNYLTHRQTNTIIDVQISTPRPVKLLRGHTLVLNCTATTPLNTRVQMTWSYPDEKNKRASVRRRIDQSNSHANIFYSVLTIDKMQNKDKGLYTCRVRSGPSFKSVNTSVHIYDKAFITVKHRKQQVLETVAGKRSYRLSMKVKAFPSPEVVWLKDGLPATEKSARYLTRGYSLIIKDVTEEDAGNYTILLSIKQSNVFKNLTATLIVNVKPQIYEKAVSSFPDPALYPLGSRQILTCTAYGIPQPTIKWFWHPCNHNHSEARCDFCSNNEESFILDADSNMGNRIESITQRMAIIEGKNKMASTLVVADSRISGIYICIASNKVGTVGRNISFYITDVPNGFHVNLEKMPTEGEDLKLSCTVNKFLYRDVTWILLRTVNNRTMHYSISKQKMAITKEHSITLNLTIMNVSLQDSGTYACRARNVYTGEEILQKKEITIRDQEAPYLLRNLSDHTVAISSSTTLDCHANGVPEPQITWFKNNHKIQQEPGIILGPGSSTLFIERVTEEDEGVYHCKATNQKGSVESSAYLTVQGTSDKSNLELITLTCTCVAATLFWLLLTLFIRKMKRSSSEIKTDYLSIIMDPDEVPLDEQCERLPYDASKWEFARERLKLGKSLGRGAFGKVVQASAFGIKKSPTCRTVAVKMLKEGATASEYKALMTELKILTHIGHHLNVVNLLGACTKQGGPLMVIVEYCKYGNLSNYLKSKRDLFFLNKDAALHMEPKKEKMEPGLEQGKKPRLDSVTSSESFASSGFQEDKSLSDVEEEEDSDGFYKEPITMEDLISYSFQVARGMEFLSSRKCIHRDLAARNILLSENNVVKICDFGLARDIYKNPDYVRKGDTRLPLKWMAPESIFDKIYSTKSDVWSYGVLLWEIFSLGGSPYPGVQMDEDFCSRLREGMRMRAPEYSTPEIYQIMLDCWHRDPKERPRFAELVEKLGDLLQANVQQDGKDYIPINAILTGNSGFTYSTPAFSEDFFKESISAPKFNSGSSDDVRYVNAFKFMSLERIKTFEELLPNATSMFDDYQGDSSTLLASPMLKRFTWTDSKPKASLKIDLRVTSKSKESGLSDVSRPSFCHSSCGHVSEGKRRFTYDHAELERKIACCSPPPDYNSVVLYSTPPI", "chain of UniProt Q15349 (whole entry, looked up)": "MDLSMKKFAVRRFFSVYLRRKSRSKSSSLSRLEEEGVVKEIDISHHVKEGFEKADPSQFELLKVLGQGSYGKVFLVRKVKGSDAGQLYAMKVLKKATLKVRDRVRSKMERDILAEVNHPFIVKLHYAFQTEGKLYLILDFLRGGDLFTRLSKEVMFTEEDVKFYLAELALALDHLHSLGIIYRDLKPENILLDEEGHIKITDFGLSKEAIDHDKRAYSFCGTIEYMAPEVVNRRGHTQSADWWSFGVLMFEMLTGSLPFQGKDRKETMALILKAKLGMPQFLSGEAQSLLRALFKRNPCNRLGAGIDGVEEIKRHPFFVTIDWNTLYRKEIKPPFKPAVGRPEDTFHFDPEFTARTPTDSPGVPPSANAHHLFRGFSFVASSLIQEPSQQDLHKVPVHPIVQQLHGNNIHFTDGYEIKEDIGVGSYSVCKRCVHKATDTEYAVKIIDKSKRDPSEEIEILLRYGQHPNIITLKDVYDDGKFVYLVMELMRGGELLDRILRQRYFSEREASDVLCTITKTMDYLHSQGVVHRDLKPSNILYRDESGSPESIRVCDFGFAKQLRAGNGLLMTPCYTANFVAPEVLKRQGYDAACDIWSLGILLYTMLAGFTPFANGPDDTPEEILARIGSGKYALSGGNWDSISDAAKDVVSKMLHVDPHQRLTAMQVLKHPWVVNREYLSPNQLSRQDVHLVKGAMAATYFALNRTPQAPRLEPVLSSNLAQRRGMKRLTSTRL", "chain of UniProt P11802 (whole entry, looked up)": "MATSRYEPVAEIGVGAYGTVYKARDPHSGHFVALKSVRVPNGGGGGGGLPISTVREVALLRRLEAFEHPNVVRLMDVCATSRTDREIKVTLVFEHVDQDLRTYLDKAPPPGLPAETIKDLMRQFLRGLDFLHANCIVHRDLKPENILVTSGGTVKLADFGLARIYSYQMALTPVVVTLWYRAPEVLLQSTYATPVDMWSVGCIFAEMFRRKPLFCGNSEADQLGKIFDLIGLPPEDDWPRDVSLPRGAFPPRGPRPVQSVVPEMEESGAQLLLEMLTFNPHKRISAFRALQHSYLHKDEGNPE"}
{"data": "Study 1", "SMILES": "CC(=O)c1ccc(N2CCOCC2)cc1O", "read-out": "enzyme activity", "mode": "inhibitor", "tested at": "0.5 µM", "baseline": "control"}
{"target": "Homeodomain-interacting protein kinase 2 (HIPK2, Homo sapiens, UniProt Q9H2X6)", "remaining activity [%]": 106}
{"target": "Calcium/calmodulin-dependent protein kinase type II subunit beta (CAMK2B, Homo sapiens, UniProt Q13554)", "remaining activity [%]": 105}
{"target": "Ephrin type-B receptor 1 (EPHB1, Homo sapiens, UniProt P54762)", "remaining activity [%]": 103}
{"target": "Cyclin-dependent kinase 4, with cyclin D3 (CDK4, Homo sapiens, UniProt P11802)", "remaining activity [%]": 96.4}
{"target": "Phosphorylase b kinase gamma catalytic chain, skeletal muscle/heart isoform (PHKG1, Homo sapiens, UniProt Q16816)", "remaining activity [%]": 96.5}
{"target": "3-phosphoinositide-dependent protein kinase 1 (PDPK1, Homo sapiens, UniProt O15530)", "remaining activity [%]": 111}
{"data": "Study 2", "host": "human", "sample": "microsomes or S9", "tested at": "2 µM", "time": "0.5 h"}
{"Compound": "CC(C)CCCC(C)NC(=O)C1CCN(c2nc(Cl)nc3[nH]cnc23)CC1 (centres unmarked)", "remaining compound [%]": 2.54}
{"Compound": "COc1ccc(Cl)cc1NC(=O)c1cc(S(=O)(=O)N2CCc3ccccc32)cn1C", "remaining compound [%]": 11.6}
{"Compound": "c1ccc(Cc2nc(Cn3cc(-c4cncnc4)nn3)cs2)cc1", "remaining compound [%]": "> 100"}
{"Compound": "COc1ccccc1CC(=O)c1ccc(O)c(O)c1O", "remaining compound [%]": 70.7}
{"Compound": "COc1cc2c(Nc3ccc(Br)c(C)c3)ncnc2cc1OCC1CN(C)CCO1 (centres unmarked)", "remaining compound [%]": 34.4}
{"data": "Study 3", "SMILES": "CC(C)n1cnc(-c2ccc(F)cc2)c1-c1ncc(C(=O)Nc2ccc(N3CCN(C)CC3)cc2)[nH]1"}
{"technique": "Phase 2a trial", "measured": "haemoptysis", "host": "human, idiopathic pulmonary fibrosis", "dose": "all compound arms", "notes": "grade 5", "patients with adverse event": "0%"}
{"measured": "prostatic calcification, maximum grade 5", "host": "idiopathic pulmonary fibrosis patients", "route": "oral", "dose": "30 mg once daily", "patients with adverse event": "0%"}
{"measured": "abnormal liver function test, grade 4", "host": "idiopathic pulmonary fibrosis patients", "route": "oral", "dose": "60 mg once daily", "patients with adverse event": "0%"}
{"measured": "prostatic calcification, maximum grade 3", "host": "idiopathic pulmonary fibrosis patients", "dose": "dose not given", "notes": "all compound arms pooled", "patients with adverse event": "0%"}
{"technique": "Phase 2a trial", "measured": "hyperlipidaemia", "host": "human, idiopathic pulmonary fibrosis", "dose": "60 mg once daily", "notes": "grade 2", "patients with adverse event": "0%"}
{"data": "Study 4", "Compound": "Cc1c[nH]c2nccc(Oc3c(F)cc(Nc4cc(Cl)nc(N)n4)cc3F)c12", "read-out": "cell-free assay", "technique": "competition with immobilised ligand", "tested at": "0.1 µM"}
{"target": "Death-associated protein kinase 1 (DAPK1, Homo sapiens, UniProt P53355)", "remaining binding": "98%"}
{"target": "Hepatocyte growth factor receptor (MET, Homo sapiens, UniProt P08581, M1250T)", "remaining binding": "99%"}
{"target": "Phosphatidylinositol 4,5-bisphosphate 3-kinase catalytic subunit alpha isoform (PIK3CA, Homo sapiens, UniProt P42336, C420R)", "remaining binding": "89%"}
{"target": "Proto-oncogene tyrosine-protein kinase receptor Ret (RET, Homo sapiens, UniProt P07949, M918T)", "remaining binding": "100%"}
{"target": "Ribosomal protein S6 kinase alpha-2, C-terminal kinase domain (RPS6KA2, Homo sapiens, UniProt Q15349)", "remaining binding": "100%"}
{"target": "Vascular endothelial growth factor receptor 1 (FLT1, Homo sapiens, UniProt P17948)", "remaining binding": "100%"}
{"target": "Activin receptor type-1 (ACVR1, Homo sapiens, UniProt Q04771)", "remaining binding": "94%"}
{"target": "Peripheral plasma membrane protein CASK (CASK, Homo sapiens, UniProt O14936)", "remaining binding": "98%"}
{"target": "Ephrin type-A receptor 1 (EPHA1, Homo sapiens, UniProt P21709)", "remaining binding": "100%"}
{"target": "Dual specificity mitogen-activated protein kinase kinase 3 (MAP2K3, Homo sapiens, UniProt P46734)", "remaining binding": "100%"}
{"target": "Tyrosine-protein kinase Tec (TEC, Homo sapiens, UniProt P42680)", "remaining binding": "86%"}
{"target": "Dual specificity protein kinase CLK3 (CLK3, Homo sapiens, UniProt P49761)", "remaining binding": "91%"}
{"target": "Casein kinase I isoform alpha (CSNK1A1, Homo sapiens, UniProt P48729)", "remaining binding": "96%"}
